Results pooled from the literature.
Parts stem from different laboratories: compare values within a part only.

Block 1 — technique: aptamer microarray, sandwich; molecule type: DNA with 2'F-ANA; sample: in vitro; tested at: 200 nM; together with: Cy3 exosite-II aptamer, 400 nM; direction: higher = stronger binding; measurement: mean fluorescence intensity; oligonucleotide: GGTTGGTGTGGTTGG
Target: Prothrombin, mature alpha-thrombin (F2, Homo sapiens, UniProt P00734)
Setting: whole 15-mer aptamer, many near background
2'F-ANA at 1 3 5 6 7 9 11 14: 91.4 a.u.
2'F-ANA at 1 5 10 15: 44.9 a.u.
2'F-ANA at 4 5 7 9 11 15: 65.9 a.u.
2'F-ANA at 1 2 3 7 8 10 11 12 14: 54.9 a.u.
2'F-ANA at 1 2 3 4 6 8 9: 215 a.u.
2'F-ANA at 3 6 7 14 15: 533 a.u.
2'F-ANA at 5 6 7 8 9 10 12 13: 50.3 a.u.
2'F-ANA at 2 5 7 8 9 11: 94.8 a.u.
2'F-ANA at 2 4 10 12 14 15: 68.7 a.u.
2'F-ANA at 1 4 5 10 12 13 15: 47 a.u.
2'F-ANA at 1 2 3 4 6 8 10 13 14 15: 58.2 a.u.
2'F-ANA at 2 3 4 5 8 9 11 14: 55.6 a.u.
2'F-ANA at 2 5 7 9: 77.4 a.u.
2'F-ANA at 1 2 3 4 6 7 9 10: 53.9 a.u.
2'F-ANA at 1 2 3 6 8 9 11 15: 177 a.u.
2'F-ANA at 1 5 8 11 12: 90.1 a.u.
2'F-ANA at 1 3 4 10 11 12 14: 50.6 a.u.
2'F-ANA at 1 3 4 5 8 9 12 14: 57.4 a.u.
2'F-ANA at 2 7 8 11 14: 162 a.u.
2'F-ANA at 1 2 3 4 5 7 8 9 12 13: 74.4 a.u.
2'F-ANA at 2 5: 73.5 a.u.
2'F-ANA at 2 5 6 8 12 14 15: 50.2 a.u.
2'F-ANA at 1 2 3 5 6 7 8 11 12 13: 84.6 a.u.
2'F-ANA at 2 4 6 9 10 11 12 13 14 15: 60 a.u.
2'F-ANA at 1 2 3 6 8 9 10 11 15: 61.3 a.u.

Block 2 — technique: protein binding microarray; molecule type: double-stranded DNA, one strand shown; sample: in vitro; tested at: not given; baseline: not given; direction: higher = stronger binding; measurement: E-score
Target: Histone acetyltransferase KAT6A, winged helix 2, GST fusion (KAT6A, Homo sapiens, UniProt Q92794, residues 85-181)
Setting: 8-mer, flanks averaged, mean of 2 arrays, mostly near background
Target sequence (chain): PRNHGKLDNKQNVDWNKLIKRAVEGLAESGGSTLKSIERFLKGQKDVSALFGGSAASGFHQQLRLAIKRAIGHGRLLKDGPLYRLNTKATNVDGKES
GACACGAA: 0.0712
CTAGACTA: -0.213
AGTTTCGG: 0.135
ATGTGCGA: 0.101
CAGTACTG: 0.0994
ACAATGAA: 0.0391
ACCCTACG: -0.0651
AGCCTATC: -0.116
ACAACCAT: 0.0152
ACAATAGG: -0.124
CAAAAGAG: -0.0817
ATCCCTGC: -0.0321
ACAGTCTG: -0.329
TGCTCTAA: 0.0935
AAATGTAC: -0.126
AAGGCAGG: -0.00999
AGTGATCC: -0.00029
CTGTCCCA: -0.0729
TCATCAGA: 0.0328
CCCCTCGC: 0.152
GGAATGAA: 0.0338
ACAGGGAC: 0.141
AGGGGGGC: -0.00449
CCGTAGGA: 0.152
GTCATAAA: 0.0182

Block 3 — technique: universal PBM; molecule type: double-stranded DNA, one strand shown; sample: in vitro; tested at: not given; direction: higher = stronger binding; measurement: E-score
Target: Sal-like protein 4, full length isoform B (SALL4, Homo sapiens, UniProt Q9UJQ4-2, residues 1-616)
Setting: 8-mer, flanks averaged, mean of replicates
Residues (chain): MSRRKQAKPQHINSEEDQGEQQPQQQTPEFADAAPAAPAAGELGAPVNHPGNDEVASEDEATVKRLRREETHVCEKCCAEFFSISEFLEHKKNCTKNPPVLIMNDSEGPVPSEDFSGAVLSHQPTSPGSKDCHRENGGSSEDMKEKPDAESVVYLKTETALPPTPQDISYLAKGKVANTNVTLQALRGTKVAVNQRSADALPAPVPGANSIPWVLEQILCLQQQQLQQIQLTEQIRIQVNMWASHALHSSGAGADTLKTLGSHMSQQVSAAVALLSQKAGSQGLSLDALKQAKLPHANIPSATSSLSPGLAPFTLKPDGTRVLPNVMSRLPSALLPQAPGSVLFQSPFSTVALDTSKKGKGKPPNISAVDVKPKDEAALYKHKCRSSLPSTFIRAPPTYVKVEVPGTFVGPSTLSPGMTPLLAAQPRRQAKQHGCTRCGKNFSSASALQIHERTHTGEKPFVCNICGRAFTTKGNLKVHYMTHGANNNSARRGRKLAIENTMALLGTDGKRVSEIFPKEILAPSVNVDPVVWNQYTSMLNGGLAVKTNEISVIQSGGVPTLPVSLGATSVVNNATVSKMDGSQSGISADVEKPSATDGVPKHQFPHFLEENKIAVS
ATATTGTG: 0.311
GCATCGGA: -0.136
ATGTCCGC: -0.0484
AGCCCACG: -0.225
CACGGAAC: 0.0654
CTCTCTTC: -0.2
ATAAGTCG: 0.0978
AAGCTAAT: 0.178
TATTTGCA: 0.28
TACTGCGA: 0.0277
ACAAGGCA: -0.0285
GGCGTTAA: -0.0772
GATCTGAC: -0.0748
AAATACGA: 0.249
ATTTTTAG: 0.159
CAATGAAC: 0.0118
ACTATTGG: 0.0584
ATGTAAGA: 0.244
ACTCGTTA: 0.0595
GCGAATAA: 0.0987
ATCTCATG: 0.0657
AACACAGC: 0.0629

Block 4 — technique: RNA Bind-n-Seq; molecule type: RNA; sample: in vitro; tested at: 365 nM; baseline: no-protein control; direction: higher = stronger binding; measurement: RBNS enrichment (R)
Target: RNA binding protein fox-1 homolog 2, RRM domain, GST-SBP tag (RBFOX2, Homo sapiens, UniProt O43251-10, residues 100-194)
Setting: natural RNA segment, single round, ends assumed
Constant ends, left off below: GGGAGUUCUACAGUCCGACGAUC … UGGAAUUCUCGGGUGCCAA
Residues (chain): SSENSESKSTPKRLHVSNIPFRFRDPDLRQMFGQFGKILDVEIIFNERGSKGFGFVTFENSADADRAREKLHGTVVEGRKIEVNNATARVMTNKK
ACUACAUUUGUCUAAGAUAUCUCUGCUAUUGACACAUGAUGCCUUUGAAUGUCAUAGAGCAUAUUUUCUCUUUUUGCCUGUUUGCACUCUGCCAUUGCACUUUGUAAAUC: 2.24
AAGCUUUUUGGUGUGAACUGGAAAAAAAAAAAAGGUGCAUUUUUCUCCGUGAAGGUCUUAGUGUAUGUGUUUUGCUUGUUAACUGUCAUCGUGGUUGGGAUUAGACCUGU: 0.499
AACGUGGUCAUCUGUGCCCGUGACGUCACCUGUGCCCGUGCGUGGCGUCCCCGUCUCCGUUGGGGCCAUUAGAAUGAGGCAGACACCAGGCCACUCUAGAAGCCGAGCCG: 0.338
UGAAGAUCCAGUUUCAUACAAACAUUUGUAUGAUGUGAAUAGUUGAUGGCAUUUUUUUGUCAUGAAAAAAAAAUAAUGUAAAUCACAGACUUUUGCCAAAGCUCUUAUUU: 0.948
AUUCACAUAGGUGGAGUUUCCCAUCUGAAGAUUUCUUUACAAGGACUUUGCUAAGUUCAUCUCAGGGUUAUCUGAGCCUUGACCAAGUUUAUCCUAAGGGAAUACCACUU: 0.306
CCACAGCUAAUUUACCCCUGGAGAUGGGCUCAGGACAGCUGCCUACCCUAGUCUCACCAAUCGUGGAUCUAACUUUGCUCCUGAGACUGGACAGACUGCAGGACAAUUCC: 0.304
GCCAUCUACUUGGAAUGGGCCCCAGGACUGUGGUAUUUGCCUGGGCCAGGAAAGGAUAAGAAAUCCUGUCAUGUGAAGACAGCUUGAGAGGCUUGAGAAAAGUGGGGCUG: 1.24
UUAAACAUUAAACCAAACUUCUGGUUUCCUUUAGACAAUCCAAGAGAAAUAAAAGGCCCUACUUUCAGCUUGGCUUUCUUUGUCCCUUUGUGAAAACUACAUAUUCCCUU: 0.245
GGUCAGGCUGUGGCCCUUACCUCACCCGCAGUUCUCGCCCAGUGCUGCAGCCGGCUCACCUCUCUCCGCUUCUUGCACAUCACUGGCCUGUGUGUGCUGCUUGCUCCUGU: 0.56
AGAAGGGGCAAAAACGUGACUAUUAAUGAUUGAUAAGCACCAGUGAAGAAGUUCUAACUUUUAGCAUGCUGCACAGAAACUGGUAUAACAUGCCUUCAGUAUACUAACAC: 4.87
UCCUUUGUAUAGGAGUAUGCUCACUUAAAUUUACAGAAAGAGGUGAGCUGUGUUAAACCUCAGAGUUUAAAAGCUACUGAUAAACUGAAGAAAGUGUCUAUAUUGGAACU: 0.347
GUUGCUGUGUAGUGUUAAUUUAUUCUGAGGAUGUGUGGCAAGCGCCUGGCACUGGGUAAAUGUAUAGUUAAAGUAGUAGCCACAACGUUGUUCUUAUUCCUAGGUCAGGG: 0.863

Block 5 — technique: RNA Bind-n-Seq; molecule type: RNA; sample: in vitro; tested at: not given; baseline: input RNA pool; direction: higher = stronger binding; measurement: bound/input enrichment
Target: RING finger protein unkempt homolog, zinc fingers 1-6, GST-SBP tag (UNK, Homo sapiens, UniProt Q9C0B0, residues 30-357)
UniProt Q9C0B0, sequence (30-357, looked up): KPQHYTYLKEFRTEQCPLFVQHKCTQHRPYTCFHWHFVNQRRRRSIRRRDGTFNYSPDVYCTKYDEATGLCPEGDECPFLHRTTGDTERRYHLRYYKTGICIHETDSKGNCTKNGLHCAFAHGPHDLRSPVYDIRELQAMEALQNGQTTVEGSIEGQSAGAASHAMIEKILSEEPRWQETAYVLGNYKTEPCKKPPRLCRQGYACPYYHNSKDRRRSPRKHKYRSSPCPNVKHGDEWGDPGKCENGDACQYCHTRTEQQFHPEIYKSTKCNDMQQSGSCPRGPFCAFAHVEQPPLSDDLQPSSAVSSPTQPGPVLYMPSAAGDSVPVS
Setting: RNA with constant flanks, human-mouse chimeric sites, ends assumed
Constant ends, left off below: GGGAGUUCUACAGUCCGACGAUC … CAACAGAGGAUUGAGCAUCA
AGAAAGCAAAACUUGGAACGAUUUAAGAAAGGAGACGUAAGAUUCUUGAUUUGCACAGAUGUAGCUGCUAGAGGAAUUGAUAUCCAUGGCGUUCCUUAUGUUAUAAACGUCACCCUGCCU: 0.221 ratio
AGCACAACCCCAGCAAAGCUCAGGAACCCUUGUACAAGUGAACAAAACUGCACCAGCCCAUUUAGCUACAAAAAUGUGCUUAGUCUUACUGACAGAGGAGAGUUUUUUAAUGAACUUGUU: 1.4 ratio
CUGAAAAACACAGAUAUCAAAGUUGUUGACUUUGGAAGUGCAACGUAUGAUGAUGAACAUCACAGUACUUUGGUGUCUACCCGGCACUACAGGGCUCCCGAGGUCAUUUUGGCUUUAGGU: 0.393 ratio
UCAACAGACAACAUCAAAUACCAGCCUAAAGGGGGGCAGGUACAAAUUGUUACUAAGAAGAUAGACUUAAGCCAUGUGACAUCCAAAUGUGGCUCUCUGAAGAACAUCCGCCACAGGCCA: 0.174 ratio
CACAGAGGCACCACCCCCCCCUCCUCCUUUCCACACCUGCAAACUCUUUUACUUGGGCUGAAUAUUUAGUGUAAUUACAUCUCAGCUUUGAGGGCUCCCUGUGGCAAUUCCCGGAUUAAA: 2.36 ratio
ACACAAUAUGAGACCAACAGCAUGGACUUCAAAGUCGGGGCAGAUGGGACAGUCUUCGCCACCCGGGAGUUGAAGAUCCCCUCCGAGCAGGUGGCGUUCACGGUGACUGCAUGGGACAGC: 0.165 ratio
UACUACUAUGAUGGUGAUAUUGGCAAUUAUUAUUAUGGCCAGGGUCAUCCCAUGAAGCCUCAUAGAAUCCGCAUGACUCAUAACUUGCUGCUAAAUUAUGGUUUAUACAGAAAAAUGGAA: 0.113 ratio
UUCAAAGAAAAGGGCAGCUGUGUCAUUUCAUAAGUAAAACUGCAUCCGGGAAAUUCUGUUCUUUUGUUUAAUUUUCCCCCAAAUGAAACCAACAUGCGUGUUGAAGAACUGAGAAAAAAU: 0.179 ratio
GACAGUGAAGAAGAAAUUAGAGAAGCAUUCCGUGUGUUUGAUAAGGAUGGCAAUGGCUAUAUUAGUGCAGCAGAGCUUCGCCAUGUGAUGACAAACCUUGGAGAGAAGUUAACAGAUGAA: 4.78 ratio
CGGAGCCCUCCUCUCCCACAGGCCCAAGAUGUGACCCACCAGUGCCUUUUGUCUUCCCGUUAGCUUUGUCAAUCACGCCUGUCCUCUCACGCCCACACCAAGUGCCCAAAGUGGGGAGGG: 9.2 ratio
UGGCGCCUGCGCUCCCCACUCGUGUUUGUAUUUUUAUUUUUAUAAGAUACAUGUAUUUACAAUUGAGUUUUUGAUUAAUAAUGCUGAAAUGCUACUGGAGAUUAUGAAAAAUGUUUCAAU: 0.29 ratio

Repeated from above (block 4):
AAGCUUUUUGGUGUGAACUGGAAAAAAAAAAAAGGUGCAUUUUUCUCCGUGAAGGUCUUAGUGUAUGUGUUUUGCUUGUUAACUGUCAUCGUGGUUGGGAUUAGACCUGU: 0.499
AACGUGGUCAUCUGUGCCCGUGACGUCACCUGUGCCCGUGCGUGGCGUCCCCGUCUCCGUUGGGGCCAUUAGAAUGAGGCAGACACCAGGCCACUCUAGAAGCCGAGCCG: 0.338
UGAAGAUCCAGUUUCAUACAAACAUUUGUAUGAUGUGAAUAGUUGAUGGCAUUUUUUUGUCAUGAAAAAAAAAUAAUGUAAAUCACAGACUUUUGCCAAAGCUCUUAUUU: 0.948
AUUCACAUAGGUGGAGUUUCCCAUCUGAAGAUUUCUUUACAAGGACUUUGCUAAGUUCAUCUCAGGGUUAUCUGAGCCUUGACCAAGUUUAUCCUAAGGGAAUACCACUU: 0.306
CCACAGCUAAUUUACCCCUGGAGAUGGGCUCAGGACAGCUGCCUACCCUAGUCUCACCAAUCGUGGAUCUAACUUUGCUCCUGAGACUGGACAGACUGCAGGACAAUUCC: 0.304
